Measured values gathered from unrelated publications.
Every numbered part comes from another study and shows a few of its results, in no order. Several values in a cell are separate wells, animals, samples, runs or records. ± marks the error that the study gave.

Block 1
Species: human
Sample: microsomes or S9
Concentration: 2 µM
Time: 0.5 h
Measurement: remaining compound
CN(C)C1(CNC(=O)C(O)c2ccccc2Cl)CCCCC1 (stereo not drawn): 90%
Cc1ccsc1CN(Cc1cn2ccccc2c1C#N)C(C)C: 46.8%
CC(C)=CCc1c2ccoc2c(O)c2oc(=O)ccc12: 58.4%
CCC(C)N(CC(=O)N1CCN(c2ccc(-c3ccc(C)cc3)nn2)CC1)C(=O)c1ccccc1F (stereo not drawn): 0.16%
COc1ccc(/C=C/c2cc(OC(C)=O)cc(OC3OC(COC(C)=O)C(OC(C)=O)C(OC(C)=O)C3OC(C)=O)c2)cc1OC(C)=O (stereo not drawn): 0.749%
O=C(CCCOc1ccc(Cl)cc1Cl)Nc1cccc(-c2nnc(-c3ccco3)o2)c1: > 99.9%
CC[S+]([O-])C1CCCCC1NC(=O)NC1CC(C)(C)OC1(C)C (stereo not drawn): 82.3%
COc1ccccc1CCN1C(O)=c2ccccc2=NC12C(=O)Nc1ccccc12 (stereo not drawn): 1.2%
N=c1sc2cc(OC(F)(F)F)ccc2n1CCO: 73.2%
COc1ccc(N(C)c2cc3n(c(=O)n2)CCc2cc(OC)c(OC)cc2-3)cc1: 50.4%
CC(=O)c1c(NC2CCCc3ccccc32)[nH]c2c(C)cc(Cl)cc2c1=O (stereo not drawn): 3.93%
CC(C)CCN(C)c1ccc(C=Nn2cnnc2)cc1: 80%
O=c1c2cc3c(=O)n(C4CCCC4)ccc3nc2ccn1-c1ncn[nH]1: > 99%
COc1cc(OC)c(OC)cc1/C=N/N=C1\NC(=O)C(CC(=O)O)S1 (stereo not drawn): 55.4%
COC(=O)c1c(CS(=O)(=O)c2ccccc2)n(S(=O)(=O)c2ccccc2)c2ccccc12: 4.24%
N#Cc1ccnc(-n2cnc(Br)n2)c1: 67.3%

Block 2
Cell line: Huh-7
Concentration: 10 µM
Time: 24 h
Measurement: viability
C[C@]12CC[C@@H]3c4ccc(O)cc4CC[C@H]3[C@@H]1CC[C@@H]2O: 85.4%
O[C@@H](c1cc(C(F)(F)F)nc2c(C(F)(F)F)cccc12)[C@H]1CCCCN1 (racemic): 91.6%
N[C@@H](CC(=O)N1CCn2c(nnc2C(F)(F)F)C1)Cc1cc(F)c(F)cc1F: 95.7%
CCC[C@H](N[C@@H](C)C(=O)N1[C@H](C(=O)O)C[C@@H]2CCCC[C@@H]21)C(=O)OCC: 99.2%
COc1ccc2c(c1OC)C(=O)O[C@@H]2[C@H]1c2c(cc3c(c2OC)OCO3)CCN1C: 91.6%
CO/N=C(\C(=O)N[C@@H]1C(=O)N2C(C(=O)O)=C(CSc3nc(=O)c(=O)[nH]n3C)CS[C@H]12)c1csc(N)n1: 101%
Cc1onc(-c2ccccc2)c1-c1ccc(S(N)(=O)=O)cc1: 94%
CC(C)NCC(O)c1cc(O)cc(O)c1 (stereo not drawn): 97.2%
CCc1nc(N)nc(N)c1-c1ccc(Cl)cc1: 65.4%
CN(C(=O)CN(CCO)CC(=O)N(C)C(C)(C)Cc1ccccc1)C(C)(C)Cc1ccccc1: 81.8%
CC(=O)NO: 100%
CCOc1nc2cccc(C(=O)OC(C)OC(=O)OC3CCCCC3)c2n1Cc1ccc(-c2ccccc2-c2nnn[nH]2)cc1 (stereo not drawn): 95.1%
CC(=O)OCC(=O)[C@@]1(O)CC[C@H]2[C@@H]3CCC4=CC(=O)C=C[C@]4(C)[C@@]3(F)[C@@H](O)C[C@@]21C: 98.9%

Block 3
Target: Death-associated protein kinase 3 (DAPK3, Homo sapiens, UniProt O43293)
Sequence of UniProt O43293 (whole entry, looked up): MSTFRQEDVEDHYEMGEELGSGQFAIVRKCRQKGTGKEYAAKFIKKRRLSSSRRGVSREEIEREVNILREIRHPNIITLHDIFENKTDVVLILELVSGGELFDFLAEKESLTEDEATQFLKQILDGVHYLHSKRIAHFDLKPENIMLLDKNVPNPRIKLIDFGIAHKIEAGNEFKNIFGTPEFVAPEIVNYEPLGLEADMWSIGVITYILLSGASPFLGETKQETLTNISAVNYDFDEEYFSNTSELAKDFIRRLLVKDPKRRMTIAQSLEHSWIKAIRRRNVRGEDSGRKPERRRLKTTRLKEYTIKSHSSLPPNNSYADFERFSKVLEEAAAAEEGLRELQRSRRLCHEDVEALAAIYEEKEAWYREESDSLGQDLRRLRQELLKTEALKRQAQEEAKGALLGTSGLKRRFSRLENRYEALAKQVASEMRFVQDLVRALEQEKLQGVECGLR
Read-out: enzyme activity
Action: inhibitor
Concentration: 0.5 µM
Reference: control
Measurement: remaining activity
NC(=O)c1cccc(-c2cc(Nc3ccc(OC(F)(F)F)cc3)ncn2)c1: 99.8%
N#CC(c1ccnc(NCCc2cccnc2)n1)c1nc2ccccc2s1 (stereo not drawn): 109%
O=C1NC(=O)/C(=C/c2ccc3c(c2)OC(F)(F)O3)S1: 104%
Nc1nc(Nc2ccc(S(N)(=O)=O)cc2)nn1C(=S)Nc1c(F)cccc1F: 94.2%
CC(C)N(CCC(=O)c1ccc2ccccc2c1)Cc1ccccc1: 107%
NC(=O)c1ccc(-c2nc(-c3ccc4c(c3)OCCO4)c(-c3ccccn3)[nH]2)cc1: 99.6%
O=C(c1ccccc1)c1ccc(N2CCOCC2)cc1O: 100%
C[C@@H](N)[C@H]1CC[C@H](C(=O)Nc2ccncc2)CC1: 90.7%
CC(C)n1cnc2c(Nc3cccc(Cl)c3)nc(NCCO)nc21: 102%
O=C(O)/C=C/c1cc(Br)c(Br)c(Br)c1Br: 90.2%
CCN(CC)CCCCN1c2ccccc2Oc2ccc(Cl)cc21: 106%

Block 4
Structure (SMILES): C[C@H](c1ccnc(Nc2nc3ccc(-c4cc(N(C)C)ncn4)cc3[nH]2)c1)N1CCN(C(=O)CC(F)(F)F)CC1
Measurement: EC50
STK17A: Serine/threonine-protein kinase 17A (STK17A, Homo sapiens, UniProt Q9UEE5)
Sequence of UniProt Q9UEE5 (whole entry, looked up): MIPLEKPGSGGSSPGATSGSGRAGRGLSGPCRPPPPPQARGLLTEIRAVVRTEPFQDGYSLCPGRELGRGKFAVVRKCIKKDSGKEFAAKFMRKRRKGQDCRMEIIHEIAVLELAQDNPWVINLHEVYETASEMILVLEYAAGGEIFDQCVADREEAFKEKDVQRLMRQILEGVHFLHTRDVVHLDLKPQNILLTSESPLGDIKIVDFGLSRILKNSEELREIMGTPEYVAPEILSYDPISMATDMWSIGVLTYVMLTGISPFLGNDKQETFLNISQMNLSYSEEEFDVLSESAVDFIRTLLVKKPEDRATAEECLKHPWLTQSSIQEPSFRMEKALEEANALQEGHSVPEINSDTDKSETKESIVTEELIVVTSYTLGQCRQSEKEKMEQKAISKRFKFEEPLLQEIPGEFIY
MAP3K19: Mitogen-activated protein kinase kinase kinase 19 (MAP3K19, Homo sapiens, UniProt Q56UN5)
Sequence of UniProt Q56UN5 (whole entry, looked up): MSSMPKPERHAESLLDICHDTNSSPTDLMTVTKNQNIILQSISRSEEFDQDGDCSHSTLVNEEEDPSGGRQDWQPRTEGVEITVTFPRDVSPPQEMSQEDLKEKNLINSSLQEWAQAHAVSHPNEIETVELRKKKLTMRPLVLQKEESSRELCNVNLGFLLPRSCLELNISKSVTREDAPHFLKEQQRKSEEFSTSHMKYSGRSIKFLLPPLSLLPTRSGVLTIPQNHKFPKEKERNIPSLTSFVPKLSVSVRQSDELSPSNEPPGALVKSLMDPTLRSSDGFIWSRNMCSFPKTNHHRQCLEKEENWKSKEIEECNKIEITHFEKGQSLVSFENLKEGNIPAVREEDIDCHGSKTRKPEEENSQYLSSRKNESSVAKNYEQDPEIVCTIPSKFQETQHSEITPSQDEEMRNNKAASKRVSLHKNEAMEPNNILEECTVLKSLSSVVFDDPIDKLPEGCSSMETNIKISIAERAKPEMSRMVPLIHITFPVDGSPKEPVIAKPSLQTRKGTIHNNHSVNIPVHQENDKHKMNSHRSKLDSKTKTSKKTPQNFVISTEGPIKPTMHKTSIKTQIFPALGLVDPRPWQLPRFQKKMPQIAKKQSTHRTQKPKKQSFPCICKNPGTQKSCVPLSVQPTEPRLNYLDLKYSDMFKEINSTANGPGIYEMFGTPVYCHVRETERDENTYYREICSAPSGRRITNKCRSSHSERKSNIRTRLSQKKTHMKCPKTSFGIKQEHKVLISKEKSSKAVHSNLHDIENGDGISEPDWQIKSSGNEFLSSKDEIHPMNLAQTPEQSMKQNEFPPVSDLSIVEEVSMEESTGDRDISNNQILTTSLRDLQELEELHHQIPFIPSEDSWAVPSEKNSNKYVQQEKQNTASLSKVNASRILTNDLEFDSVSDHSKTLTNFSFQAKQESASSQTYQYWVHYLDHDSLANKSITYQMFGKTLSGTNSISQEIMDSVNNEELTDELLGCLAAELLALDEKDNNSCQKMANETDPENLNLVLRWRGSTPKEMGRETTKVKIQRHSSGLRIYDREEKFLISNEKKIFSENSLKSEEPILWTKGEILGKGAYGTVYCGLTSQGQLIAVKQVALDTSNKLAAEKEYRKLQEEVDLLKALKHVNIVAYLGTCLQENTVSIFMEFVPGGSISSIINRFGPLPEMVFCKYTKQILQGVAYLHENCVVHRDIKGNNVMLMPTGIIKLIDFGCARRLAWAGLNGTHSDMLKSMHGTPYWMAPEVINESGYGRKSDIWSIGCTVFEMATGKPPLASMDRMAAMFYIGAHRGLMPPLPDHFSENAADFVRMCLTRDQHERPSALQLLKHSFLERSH
MAP2K5: Dual specificity mitogen-activated protein kinase kinase 5 (MAP2K5, Homo sapiens, UniProt Q13163)
Sequence of UniProt Q13163 (whole entry, looked up): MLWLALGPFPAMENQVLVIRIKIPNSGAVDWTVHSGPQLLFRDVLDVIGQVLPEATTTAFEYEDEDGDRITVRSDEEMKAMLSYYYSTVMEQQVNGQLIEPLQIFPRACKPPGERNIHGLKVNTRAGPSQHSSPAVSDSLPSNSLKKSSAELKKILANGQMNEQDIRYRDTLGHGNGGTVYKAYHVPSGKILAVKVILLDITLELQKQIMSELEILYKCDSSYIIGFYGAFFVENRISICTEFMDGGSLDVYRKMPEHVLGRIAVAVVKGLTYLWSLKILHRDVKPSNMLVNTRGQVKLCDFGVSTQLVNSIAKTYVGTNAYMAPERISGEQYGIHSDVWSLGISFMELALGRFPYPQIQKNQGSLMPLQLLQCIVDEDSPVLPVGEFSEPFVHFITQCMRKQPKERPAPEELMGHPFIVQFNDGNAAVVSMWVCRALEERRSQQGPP
IKBKE: Inhibitor of nuclear factor kappa-B kinase subunit epsilon (IKBKE, Homo sapiens, UniProt Q14164)
Sequence of UniProt Q14164 (whole entry, looked up): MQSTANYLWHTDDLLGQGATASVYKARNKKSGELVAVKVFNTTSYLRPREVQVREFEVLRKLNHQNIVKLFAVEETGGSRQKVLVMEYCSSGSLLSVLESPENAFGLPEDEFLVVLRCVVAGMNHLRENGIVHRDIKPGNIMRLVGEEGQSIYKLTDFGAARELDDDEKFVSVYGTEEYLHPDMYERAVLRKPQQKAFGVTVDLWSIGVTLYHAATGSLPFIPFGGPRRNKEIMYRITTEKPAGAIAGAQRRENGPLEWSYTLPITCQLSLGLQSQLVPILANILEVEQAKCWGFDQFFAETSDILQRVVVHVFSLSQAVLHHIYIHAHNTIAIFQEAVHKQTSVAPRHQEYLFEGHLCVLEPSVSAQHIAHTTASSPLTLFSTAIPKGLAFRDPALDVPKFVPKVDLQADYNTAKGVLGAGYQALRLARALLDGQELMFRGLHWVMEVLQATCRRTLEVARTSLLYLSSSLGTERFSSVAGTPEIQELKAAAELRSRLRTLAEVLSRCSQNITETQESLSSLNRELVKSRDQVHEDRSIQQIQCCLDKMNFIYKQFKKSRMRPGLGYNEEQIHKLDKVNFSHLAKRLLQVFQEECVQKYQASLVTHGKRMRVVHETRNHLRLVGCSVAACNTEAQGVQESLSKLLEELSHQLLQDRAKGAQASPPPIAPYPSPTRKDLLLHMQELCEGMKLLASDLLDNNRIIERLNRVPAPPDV
STK17A; target engagement in cells, BRET: 4.8 µM
MAP3K19; target engagement, NanoBRET: > 50 µM
MAP2K5; target engagement in cells, BRET: > 50 µM
IKBKE; target engagement in cells, BRET: 0.42 µM
MAP3K19; target engagement in cells, BRET: > 50 µM
STK17A; target engagement, NanoBRET: 4.8 ± 2 µM
MAP2K5; target engagement, NanoBRET: > 50 µM
IKBKE; target engagement, NanoBRET; live cells: 0.947 µM and 0.144 µM
MAP2K5; target engagement, NanoBRET; live cells: > 50 µM
Receptor-type tyrosine-protein kinase FLT3 (FLT3, Homo sapiens, UniProt P36888); target engagement, NanoBRET; live cells: 18.3 µM
MAP3K19; target engagement, NanoBRET; live cells: > 50 µM

For quick reference, copied from above (block 1):
CC(=O)c1c(NC2CCCc3ccccc32)[nH]c2c(C)cc(Cl)cc2c1=O (stereo not drawn): 3.93%
COc1ccc(N(C)c2cc3n(c(=O)n2)CCc2cc(OC)c(OC)cc2-3)cc1: 50.4%
CC[S+]([O-])C1CCCCC1NC(=O)NC1CC(C)(C)OC1(C)C (stereo not drawn): 82.3%
CC(C)=CCc1c2ccoc2c(O)c2oc(=O)ccc12: 58.4%
COC(=O)c1c(CS(=O)(=O)c2ccccc2)n(S(=O)(=O)c2ccccc2)c2ccccc12: 4.24%
COc1ccccc1CCN1C(O)=c2ccccc2=NC12C(=O)Nc1ccccc12 (stereo not drawn): 1.2%
